Results pooled from the literature.
Protocols differ between the studies behind these lines. ± gives the spread as reported.

`CNC(=O)c1cccc(-c2ccc3c(N4CCOC[C@@H]4C)nc(N4CCOC[C@@H]4C)nc3n2)c1` gave an unbound fraction of 0.0547 (human plasma).
With `O=C(NOCCO)c1cc2nc[nH]c2c(F)c1Nc1ccc(Br)cc1Cl` the unbound fraction was 0.894% (ESRD on hemodialysis, plasma; oral, 50 mg, dosed after dialysis, median).
The unbound fraction of `COCCOc1nc(N)c2nc(O)n(Cc3ccc(C(=O)NCCOCCOCCOCCOCCOCCOCCOCCOCCOCCOCCn4cc(CCC(=O)O)nn4)cc3)c2n1` is reported as 0.518 (rapid equilibrium dialysis; dialyzed fetal bovine serum).
`CC(C)C[C@H](NC(=O)CNC(=O)c1cc(Cl)ccc1Cl)B(O)O` gave an unbound fraction of 0.0084 ± 0.0035 (rapid equilibrium dialysis; normal hepatic function subjects, plasma; 70 or 280 ng/mL, 3 h, 37 °C).
The unbound fraction of `Clc1ccccc1C(c1ccccc1)(c1ccccc1)n1ccnc1` is reported as 0.661 ± 0.042 (equilibrium dialysis; 5 nM CYP26A1 in buffer; 1 µM, 12 h, pH 7.4, IC50 assay conditions).
`C[C@H]1CO[C@@H]2Cn3cc(C(=O)NCc4ccc(F)cc4F)c(=O)c(O)c3C(=O)N12` gave an unbound fraction of 0.00075 (HIV-infected adults, plasma; intramuscular, at Cmax, every 4 weeks, median).
`COCCOc1nc(N)c2nc(O)n(Cc3ccc(C(=O)NCCOCCOCCOCCOCCOCCOCCOCCOCCOCCOCCN=[N+]=[N-])cc3)c2n1` has an unbound fraction of 0.555 (rapid equilibrium dialysis; dialyzed fetal bovine serum).
`Cc1ccsc1C(=O)Nc1cc(CN2CCN(C(=O)CO)CC2)ccc1/C=C/c1n[nH]c2ccccc12` gave an unbound fraction of 0.048 to 0.057 (equilibrium dialysis; mouse plasma; up to 10 000 ng eq/mL, 6 h, pH 7.2).
`CCCS(=O)(=O)Nc1ccc(F)c(C(=O)c2c[nH]c3ncc(-c4ccc(Cl)cc4)cc23)c1F` has an unbound fraction of 1.2e-05 ± 1.9e-06 (equilibrium dialysis; 100% human plasma; 5 to 500 µM, after 30 min in uptake plate).

Repeated from above:
With `O=C(NOCCO)c1cc2nc[nH]c2c(F)c1Nc1ccc(Br)cc1Cl` the unbound fraction was 0.894% (ESRD on hemodialysis, plasma; oral, 50 mg, dosed after dialysis, median).
